Assay results pooled from the literature.
Every numbered part comes from another study and shows a few of its results, in no order.

Sample 1
Target: Histone acetyltransferase KAT6A, winged helix 1, GST fusion (KAT6A, Homo sapiens, UniProt Q92794, residues 1-85)
Method: protein binding microarray
Form: double-stranded DNA, one strand shown
Medium: in vitro
Tested at: not given
Notes: 8-mer, flanks averaged, mean of 2 arrays, mostly near background
Relative to: not given
Direction: higher = stronger binding
Measurement: E-score
Target sequence (chain): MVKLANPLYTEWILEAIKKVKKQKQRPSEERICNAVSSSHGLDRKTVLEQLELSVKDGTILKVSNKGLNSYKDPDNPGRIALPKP
CGACATTA: 0.0166
CACCTGGG: -0.286
AAAAAATA: -0.164
AAACCGGG: 0.256
CTTCCACC: -0.109
CGTCGGTA: 0.401
CCACGTCC: -0.145
CGATCGTC: 0.194

Sample 2
Target: Replicase polyprotein 1ab, polymerase (rep, Severe acute respiratory syndrome coronavirus 2, UniProt P0DTD1)
Effect on: enzyme activity
Mode: inhibitor
Tested at: 20 µM
Measurement: inhibition
Nc1nc(=O)c2sc(=O)n([C@@H]3O[C@H](CO)[C@@H](O)[C@H]3O)c2[nH]1: -0.17%
CCC/C=C1\OC(=O)C2=C1CCC=C2: 4.03%
COc1ccc2c(C(=S)N(C)CC(=O)O)cccc2c1C(F)(F)F: -1.33%
CC(C)(C)c1cc(C(=O)/C(C#N)=N/Nc2cccc(Cl)c2)no1: 0.99%
CC(C)COC(=O)c1ccc(N)cc1: 2.14%
CN[C@@H]1[C@H](O)[C@H](NC)[C@H]2O[C@@]3(O)C(=O)C[C@@H](C)O[C@H]3O[C@@H]2[C@H]1O: 19.2%
NCCNC(=O)c1ccc(Cl)cn1: -0.62%
Cc1ccc(C[N+](C)(C)C)o1: -2.13%
N#CN1CCCC1: -2.45%
O=S(=O)(NCC1CC1)c1ccc(Nc2nccc(N3CCCc4cc(O)ccc43)n2)cc1: 2.59%
CCOC(=O)C(C)Oc1cccc2c(=O)n(CC(=O)Nc3ccc4c(c3)OCCO4)ccc12 (centres unmarked): -3.32%
Cn1cnc2[nH]c(=O)[nH]c(=O)c21: -2.08%
CCS(=O)(=O)CCn1c([N+](=O)[O-])cnc1C: -2.68%
CCCc1nc2c(C)cc(-c3nc4ccccc4n3C)cc2n1Cc1ccc(-c2ccccc2C(=O)O)cc1: 8.43%
Cc1c(CC(C)(C)C(=O)O)n(Cc2ccc(Cl)cc2)c2ccc(F)cc12: 3.9%
O=C(NCc1ccccc1)c1csc(Nc2ccncn2)n1: -2.44%
O=C(O)CCCCCCNC1c2ccccc2CCc2ccccc21: -9.35%
O=C(/C=C/c1ccc2c(c1)OCO2)N1CCCCC1: -2.76%
O=C(Nc1cnc(Cl)nc1)c1ccc(F)c(F)c1: 1.68%
C[C@H]1CC[C@H](n2c3cnccc3c3cnc(Nc4ccc5c(n4)CCN(C(=O)CO)C5)nc32)CC1: 3.26%
COc1cc2c(cc1OC)C(=O)C(CC1CCN(Cc3ccccc3)CC1)C2 (centres unmarked): -3.48%
COc1ccc(CCNCc2ccc(OCc3ccc(Cl)nc3)c(OC)c2)cc1OC: -0.15%
O=C(Nc1cc(C(F)(F)F)cc(C(F)(F)F)c1)Nc1c(Br)cc(Br)cc1-c1nn[nH]n1: 10.5%
Nc1nc(=S)c2ncn([C@@H]3O[C@H](CO)[C@@H](O)[C@H]3O)c2[nH]1: -1.44%
CC(C)c1cc(CNc2nc(Nc3cc(C4CC4)[nH]n3)cc(N3CCN(C)CC3)n2)on1: -4.96%

Sample 3
Target: Interferon regulatory factor 7, full length, phosphomimetic (IRF7, Homo sapiens, UniProt Q92985, residues 1-503, S101K/S471D/S472D/S475D/S476D/S477D/S483D/S484D/S487D)
Method: protein-binding microarray
Form: double-stranded DNA, one strand shown
Medium: in vitro
Tested at: 250 nM
Notes: 60-bp whole probe
With: salmon DNA 0.4 mg/ml
Relative to: random background probes
Direction: higher = stronger binding
Measurement: log fluorescence
Shared flanks, not repeated: GCCTAGCAC … GTCTTGATTCGCTTGACGCTGCTG
Target sequence (chain): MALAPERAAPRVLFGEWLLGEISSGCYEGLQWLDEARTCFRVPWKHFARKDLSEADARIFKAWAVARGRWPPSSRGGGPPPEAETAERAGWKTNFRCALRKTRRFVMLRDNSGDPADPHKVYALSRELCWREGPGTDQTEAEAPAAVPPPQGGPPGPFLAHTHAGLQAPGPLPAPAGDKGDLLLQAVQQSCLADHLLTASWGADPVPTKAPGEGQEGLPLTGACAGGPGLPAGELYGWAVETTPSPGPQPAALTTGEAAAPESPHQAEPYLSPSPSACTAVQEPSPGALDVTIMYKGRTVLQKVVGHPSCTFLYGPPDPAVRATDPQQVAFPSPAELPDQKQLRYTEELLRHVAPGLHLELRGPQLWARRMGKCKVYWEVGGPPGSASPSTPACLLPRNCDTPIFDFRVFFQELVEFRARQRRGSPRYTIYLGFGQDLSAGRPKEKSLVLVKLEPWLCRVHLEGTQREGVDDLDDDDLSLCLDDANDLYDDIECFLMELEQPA
TTAGGTTTCGGACGGGGTTAGTGCTAG: 1.57 z-score
CAAGTTTTTATTTTCTGAATGTGCTAG: 2.02 z-score
GACGGTCTCGGACTGGGGACGTGCTAG: 0.247 z-score
TTAGGTATCGGGTATCGGTTAGTGCTA: 1.67 z-score
GACGGTTTCCTTTTCCGGACGTGCTAG: 6.64 z-score
GACGGACTGGCGTTTCGGGACGTGCTA: -0.405 z-score

Sample 4
Target: RNA binding protein fox-1 homolog 2, RRM domain, GST-SBP tag (RBFOX2, Homo sapiens, UniProt O43251-10, residues 100-194)
Method: RNA Bind-n-Seq
Form: RNA
Medium: in vitro
Tested at: 365 nM
Notes: natural RNA segment, single round, ends assumed
Relative to: no-protein control
Direction: higher = stronger binding
Measurement: RBNS enrichment (R)
Shared flanks, not repeated: GGGAGUUCUACAGUCCGACGAUC … UGGAAUUCUCGGGUGCCAA
Target sequence (chain): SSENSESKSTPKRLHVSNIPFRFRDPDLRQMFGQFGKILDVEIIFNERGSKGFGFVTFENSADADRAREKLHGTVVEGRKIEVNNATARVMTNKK
CCCAUUUCCACCUCCCAGUAAACUGACUUAUAAAUUGCUAUACUUUUCCUGUUUUUUCUGUUGCUGUGGAACUUAAAGAAUGUGAAAGCUGUCAAAGGGUGUUUUCGGAA: 0.71
UCUGUAUCAGUGGAUUUCCCAUCCCCUGUGGGAAAUUAGUAGGCUCAUUUACUGUUUUAGGUCUAGCCUAUGUGGAUUUUUUCCUAACAUACCUAAGCAAACCCAGUGUC: 0.312
UUGUUUUUUGUUGUUGUUGUUAUUUUUUUCUCCUUGUUUGUAUUUAAUUAAAACAAAUUGUCAUGAGGAAAUGUUCUCUGUUUGGAUGGCUCUUUUGUGUGUGAACUGUU: 8.56
UCCCUCAGGACCCUGGGUAAGAUGGCUACAUUUAAGGUGACUCUGAAUGGUGGGGUUCUAGCUUGGUCACUUUCAUUUCUUGCCAUCAUAAAAACUAGUAGGCUGUGGAG: 1.17
UUUUUUUUUUCACUUAGAAUUUAGCUCCAUUUGCUUGAGAGAGGGGGAAAAAUUCAUAUCUGUUUCUCUUUGUUUGCAAAUAAGCCUUAGGAUGGCUGUUUUCUAUGCUG: 0.862
CCCAACUUUCAGAACGUCCCUAGCCCUGUCUUCAUCCCUUCCCCUGCCAGUGCCUUACCACCUACCCAGGAAAGCAGGUCCUUGAGCCACCCAGGCCUUACAAUUUGAUC: 0.842
CAUGUCUAGCCUUUAGAGUGGCCAAUCAUGUUUUACUUUCAUUUAAGCACUGGUAGUCUGGAGUACCUGGUACUGAGUAACUCUAUAAUUGUGUUUUGUGUUCACCAUAU: 0.676
UCUGGUCUCUUUAAGACUGUUUUAAAAGAAAUCAAUUUAGGGAACCCCAGUUAUAUAAUAUAAACUUUGUAAUCUGAGAGAAAAAAUGUAUAGUAAAUCUAAGUCUUGAU: 1.08

Sample 5
Cell line: HEK-293T/ACE2
Tested at: concentration not given
Time: 16 (unit not given)
Relative to: vehicle
Measurement: viability
CC(=O)c1ccc2c(c1)N(CCCN1CCC(CCO)CC1)c1ccccc1S2: 104%
CCCCCCCCCCCCCCCC[N+](C)(C)CCN(Cc1ccc(OC)cc1)c1ncccn1: 101%
CCCN(CCC)CCc1cccc2c1CC(=O)N2: 102%
